Results collected from several papers.
Protocols differ between the studies behind these lines. ± marks the error that the study gave.
BRAF: Serine/threonine-protein kinase B-raf (BRAF, Homo sapiens, UniProt P15056)
Sequence of UniProt P15056 (whole entry, unmodified, looked up): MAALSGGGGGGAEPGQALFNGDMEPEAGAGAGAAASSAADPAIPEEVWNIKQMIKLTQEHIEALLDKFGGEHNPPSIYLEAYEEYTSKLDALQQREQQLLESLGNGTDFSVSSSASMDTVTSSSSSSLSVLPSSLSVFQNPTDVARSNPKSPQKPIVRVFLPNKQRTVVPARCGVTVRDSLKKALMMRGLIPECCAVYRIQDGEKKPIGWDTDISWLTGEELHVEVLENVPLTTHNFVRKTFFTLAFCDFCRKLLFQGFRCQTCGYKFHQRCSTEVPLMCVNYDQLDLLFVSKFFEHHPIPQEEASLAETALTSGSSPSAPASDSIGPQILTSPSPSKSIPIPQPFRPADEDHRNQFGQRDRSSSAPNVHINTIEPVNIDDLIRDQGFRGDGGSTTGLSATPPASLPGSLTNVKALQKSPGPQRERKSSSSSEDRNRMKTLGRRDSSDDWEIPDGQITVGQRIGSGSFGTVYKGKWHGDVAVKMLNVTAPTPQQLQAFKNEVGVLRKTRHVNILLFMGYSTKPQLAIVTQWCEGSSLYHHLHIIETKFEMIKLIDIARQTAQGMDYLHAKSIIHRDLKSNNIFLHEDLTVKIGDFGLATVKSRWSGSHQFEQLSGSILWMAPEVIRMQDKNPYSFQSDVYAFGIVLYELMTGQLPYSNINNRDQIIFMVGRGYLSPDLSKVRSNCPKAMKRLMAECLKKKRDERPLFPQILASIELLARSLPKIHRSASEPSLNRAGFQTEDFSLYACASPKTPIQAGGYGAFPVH

`COc1cc(-c2cncc3c2CN(C)Cc2cc(N4CCNCC4)ccc2-3)cc(OC)c1OC` gave a remaining activity of 92% (BRAF (Homo sapiens, UniProt P15056, V600E); kinase activity; 1 µM, with: ATP 10 µM; reference: DMSO control).
The remaining binding of `C=CC(=O)N1CCC(COCC(=O)N2CCN(c3nc(-c4cnc(N)nc4C(F)F)nc(N4CCOC[C@@H]4C)n3)CC2)CC1` is reported as 90% (BRAF; KINOMEscan; 1 µM).
For `COc1ccc(-c2ccc3c(N4CCOC[C@@H]4C)nc(N4CCOC[C@@H]4C)nc3n2)cc1COC(=O)CCOCCOCCOCCONC(=O)c1ccc(F)c(F)c1Nc1ccc(I)cc1F`, inhibition read “inhibited” (BRAF (Homo sapiens, UniProt P15056, V600E); kinase activity, inhibitor; 2.5 µM).
For `c1cnc2ccc(Nc3nc(NC4CC4)c4nc[nH]c4n3)cc2c1`, the remaining activity was 98% (BRAF; kinase activity, inhibitor, SelectScreen kinase profiling; 1 µM; reference: control).
For `C=CC(=O)N1CCC([C@@H]2CCNc3c(C(N)=O)c(-c4ccc(Oc5ccccc5)cc4)nn32)CC1`, the remaining activity was 72.4 ± 5.2% (BRAF; kinase activity, inhibitor, HotSpot radiometric; 100 nM, with: ATP 10 µM).
With `C#Cc1cnc(Nc2ccnc(CO)c2)nc1Nc1ccccc1S(C)(=O)=NC#N` (stereo not shown) the remaining activity was 92% (BRAF (Homo sapiens, UniProt P15056, V600E); kinase activity, kinase selectivity panel; 1 µM; reference: control).
With `CNc1cc(Oc2cc(C(=O)Nc3cc(N4CCN(C)CC4)cc(C(F)(F)F)c3)ccc2C)ncn1` the inhibition was -99.6% (BRAF (Homo sapiens, UniProt P15056, V600E); Huh-7; 1 µM).
With `[2H]c1cc(C)c(NC(=O)c2cnc(Nc3cc(N4CCCCC4)nc(C)n3)s2)c(Cl)c1` the inhibition was under 30% (BRAF; 0.01 µM).
`CCN1CCN(Cc2ccc(NC(=O)c3ccc(C)c(Oc4ccnc5[nH]ccc45)c3)cc2C(F)(F)F)CC1` gave an inhibition of -20.4% (BRAF (Homo sapiens, UniProt P15056, V600E); A-375; 0.05 µM).
The remaining activity of `COc1ccc(F)cc1C(=O)NCc1ccc(-c2nn([C@@H](C)C(F)(F)F)c(N)c2C(N)=O)cc1` is reported as 103 ± 1.4% (BRAF; 1000 nM, with: ATP at Km).
With `C=CC(=O)N1CCC[C@@H](n2nc(-c3ccc(Oc4ccccc4)cc3)c3c(N)ncnc32)C1` the remaining activity was 93.5% (BRAF; 10 µM).
With `Cc1cc(O)c(-c2ccc([C@@H](C)CN(C)C)cc2)c2c1[nH]c(=O)c1sccc12` the inhibition was -25.6% (Serine/threonine-protein kinase B-raf, V600E (BRAF, Homo sapiens, UniProt P15056); inhibitor, KiNativ probe labelling; cell lysate; 0.1 µM).
The inhibition of `CC/C(=N\NC(=O)NCc1cccc(O)c1)c1ccc(O)c(C)c1O` is reported as 0% (BRAF (Homo sapiens, UniProt P15056, V600E); kinase activity, inhibitor; 0.1 µM).
